Published values from different studies.
A part holds a random share of what one study measured. Several values in a cell are separate wells, animals, samples, runs or records.
Chain of UniProt P08069 (whole entry, looked up): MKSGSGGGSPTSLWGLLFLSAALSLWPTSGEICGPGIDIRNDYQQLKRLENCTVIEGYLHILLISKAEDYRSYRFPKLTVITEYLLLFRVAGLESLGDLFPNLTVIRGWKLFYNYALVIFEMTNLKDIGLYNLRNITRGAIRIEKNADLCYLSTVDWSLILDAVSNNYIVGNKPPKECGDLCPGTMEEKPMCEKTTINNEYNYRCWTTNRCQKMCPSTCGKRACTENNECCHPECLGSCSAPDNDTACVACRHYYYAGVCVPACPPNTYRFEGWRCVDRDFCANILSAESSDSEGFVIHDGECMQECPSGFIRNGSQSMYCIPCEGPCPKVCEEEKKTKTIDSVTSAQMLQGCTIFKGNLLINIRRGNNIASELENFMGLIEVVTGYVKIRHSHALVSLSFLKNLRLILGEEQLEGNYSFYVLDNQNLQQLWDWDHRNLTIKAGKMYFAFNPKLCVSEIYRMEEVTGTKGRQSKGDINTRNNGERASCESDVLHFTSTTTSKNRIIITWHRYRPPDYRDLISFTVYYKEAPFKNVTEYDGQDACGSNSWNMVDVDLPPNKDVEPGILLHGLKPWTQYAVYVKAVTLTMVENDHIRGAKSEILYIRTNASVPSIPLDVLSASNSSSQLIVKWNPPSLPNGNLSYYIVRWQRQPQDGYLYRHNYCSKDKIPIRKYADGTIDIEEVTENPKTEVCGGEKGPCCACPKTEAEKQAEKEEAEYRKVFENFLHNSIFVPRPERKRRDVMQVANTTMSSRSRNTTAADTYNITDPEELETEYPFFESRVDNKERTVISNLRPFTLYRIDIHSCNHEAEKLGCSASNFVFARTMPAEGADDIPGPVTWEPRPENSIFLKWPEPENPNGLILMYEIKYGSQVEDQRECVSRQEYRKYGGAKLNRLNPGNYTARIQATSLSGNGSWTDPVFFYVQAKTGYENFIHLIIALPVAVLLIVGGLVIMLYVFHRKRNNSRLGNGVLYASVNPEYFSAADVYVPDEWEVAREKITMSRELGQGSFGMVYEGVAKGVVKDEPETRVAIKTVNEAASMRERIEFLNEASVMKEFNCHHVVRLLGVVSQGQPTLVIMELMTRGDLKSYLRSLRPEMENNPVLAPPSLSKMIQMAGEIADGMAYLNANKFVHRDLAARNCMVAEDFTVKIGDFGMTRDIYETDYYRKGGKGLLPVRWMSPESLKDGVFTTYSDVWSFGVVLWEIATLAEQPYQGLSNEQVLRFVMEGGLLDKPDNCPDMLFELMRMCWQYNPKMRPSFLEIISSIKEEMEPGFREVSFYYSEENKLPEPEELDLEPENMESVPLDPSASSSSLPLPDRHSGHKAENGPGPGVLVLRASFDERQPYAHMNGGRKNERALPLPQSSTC
Chain of UniProt O15146 (whole entry, looked up): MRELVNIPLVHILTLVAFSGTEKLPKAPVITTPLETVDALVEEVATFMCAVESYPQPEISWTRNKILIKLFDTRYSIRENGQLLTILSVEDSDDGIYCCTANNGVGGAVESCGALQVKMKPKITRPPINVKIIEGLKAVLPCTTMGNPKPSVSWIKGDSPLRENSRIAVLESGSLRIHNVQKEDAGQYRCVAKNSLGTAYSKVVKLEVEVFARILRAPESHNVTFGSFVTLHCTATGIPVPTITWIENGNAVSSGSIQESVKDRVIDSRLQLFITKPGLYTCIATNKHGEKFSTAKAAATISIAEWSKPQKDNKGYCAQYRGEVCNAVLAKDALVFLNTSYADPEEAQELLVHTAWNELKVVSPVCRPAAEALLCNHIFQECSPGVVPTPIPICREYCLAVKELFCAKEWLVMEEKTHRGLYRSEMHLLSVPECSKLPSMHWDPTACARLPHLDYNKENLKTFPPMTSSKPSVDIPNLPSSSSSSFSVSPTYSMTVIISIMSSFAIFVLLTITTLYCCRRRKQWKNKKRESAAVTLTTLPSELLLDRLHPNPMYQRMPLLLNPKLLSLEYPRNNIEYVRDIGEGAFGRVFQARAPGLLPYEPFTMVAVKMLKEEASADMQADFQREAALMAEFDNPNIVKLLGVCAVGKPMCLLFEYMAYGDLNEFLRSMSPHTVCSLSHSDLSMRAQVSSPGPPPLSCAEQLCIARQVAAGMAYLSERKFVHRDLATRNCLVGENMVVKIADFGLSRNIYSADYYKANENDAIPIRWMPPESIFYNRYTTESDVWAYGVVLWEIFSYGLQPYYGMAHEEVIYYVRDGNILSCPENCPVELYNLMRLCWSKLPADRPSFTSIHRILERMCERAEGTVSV
Chain of UniProt P11802 (whole entry, looked up): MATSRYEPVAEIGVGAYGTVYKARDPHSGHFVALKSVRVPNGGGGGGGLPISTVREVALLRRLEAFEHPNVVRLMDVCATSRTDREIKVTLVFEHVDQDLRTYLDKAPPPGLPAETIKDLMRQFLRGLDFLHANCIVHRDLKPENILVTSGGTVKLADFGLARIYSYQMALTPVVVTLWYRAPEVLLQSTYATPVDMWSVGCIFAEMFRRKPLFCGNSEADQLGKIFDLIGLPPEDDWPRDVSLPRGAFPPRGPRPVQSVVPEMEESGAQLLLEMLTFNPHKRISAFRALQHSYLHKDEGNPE

Series 1
SMILES: Cc1ccc(NC2=CC(=O)c3sc(C)nc3C2=O)cc1
Observed: enzyme activity
Mode: inhibitor
Concentration: 0.5 µM
Relative to: control
It gave 95.3% for remaining activity (Tyrosine-protein kinase receptor TYRO3 (TYRO3, Homo sapiens, UniProt Q06418)).
Tyrosine-protein kinase JAK1 (JAK1, Homo sapiens, UniProt P23458) — remaining activity: 95.1%.
It gave 94.6% for remaining activity (Serine/threonine-protein kinase Sgk2 (SGK2, Homo sapiens, UniProt Q9HBY8)).
For Insulin-like growth factor 1 receptor (IGF1R, Homo sapiens, UniProt P08069): remaining activity read 92.2%.
It gave 98.2% for remaining activity (Protein kinase C zeta type (PRKCZ, Homo sapiens, UniProt Q05513)).
It gave 108% for remaining activity (Calcium/calmodulin-dependent protein kinase kinase 1 (CAMKK1, Homo sapiens, UniProt Q8N5S9)).
The remaining activity was 93.4% (Casein kinase I isoform epsilon (CSNK1E, Homo sapiens, UniProt P49674)).
For Serine/threonine-protein kinase SIK2 (SIK2, Homo sapiens, UniProt Q9H0K1): remaining activity read 118%.
Protein kinase C theta type (PRKCQ, Homo sapiens, UniProt Q04759) — remaining activity: 93%.
For Vascular endothelial growth factor receptor 1 (FLT1, Homo sapiens, UniProt P17948): remaining activity read 89.8%.
The remaining activity was 110% (Serine/threonine-protein kinase PAK 6 (PAK6, Homo sapiens, UniProt Q9NQU5)).
For Mitogen-activated protein kinase kinase kinase 20 (MAP3K20, Homo sapiens, UniProt Q9NYL2): remaining activity read 94%.
It gave 87.5% for remaining activity (Serine/threonine-protein kinase PAK 1 (PAK1, Homo sapiens, UniProt Q13153)).
The remaining activity was 101% (Casein kinase I isoform delta (CSNK1D, Homo sapiens, UniProt P48730)).
Ephrin type-A receptor 2 (EPHA2, Homo sapiens, UniProt P29317) — remaining activity: 102%.
For Dual specificity protein kinase CLK1 (CLK1, Homo sapiens, UniProt P49759): remaining activity read 100%.
It gave 92.6% for remaining activity (SRSF protein kinase 1 (SRPK1, Homo sapiens, UniProt Q96SB4)).
The remaining activity was 117% (Tyrosine-protein kinase Tec (TEC, Homo sapiens, UniProt P42680)).
Ribosomal protein S6 kinase alpha-3 (RPS6KA3, Homo sapiens, UniProt P51812) — remaining activity: 104%.
For Muscle, skeletal receptor tyrosine-protein kinase (MUSK, Homo sapiens, UniProt O15146): remaining activity read 89.1%.
It gave 83.6% for remaining activity (Dual specificity protein kinase CLK2 (CLK2, Homo sapiens, UniProt P49760)).
The remaining activity was 87.6% (Calcium/calmodulin-dependent protein kinase type 1 (CAMK1, Homo sapiens, UniProt Q14012)).

Series 2
Target: DNA polymerase theta, ATPase domain (POLQ, Homo sapiens, UniProt O75417)
Chain of UniProt O75417 (whole entry, unmodified, looked up): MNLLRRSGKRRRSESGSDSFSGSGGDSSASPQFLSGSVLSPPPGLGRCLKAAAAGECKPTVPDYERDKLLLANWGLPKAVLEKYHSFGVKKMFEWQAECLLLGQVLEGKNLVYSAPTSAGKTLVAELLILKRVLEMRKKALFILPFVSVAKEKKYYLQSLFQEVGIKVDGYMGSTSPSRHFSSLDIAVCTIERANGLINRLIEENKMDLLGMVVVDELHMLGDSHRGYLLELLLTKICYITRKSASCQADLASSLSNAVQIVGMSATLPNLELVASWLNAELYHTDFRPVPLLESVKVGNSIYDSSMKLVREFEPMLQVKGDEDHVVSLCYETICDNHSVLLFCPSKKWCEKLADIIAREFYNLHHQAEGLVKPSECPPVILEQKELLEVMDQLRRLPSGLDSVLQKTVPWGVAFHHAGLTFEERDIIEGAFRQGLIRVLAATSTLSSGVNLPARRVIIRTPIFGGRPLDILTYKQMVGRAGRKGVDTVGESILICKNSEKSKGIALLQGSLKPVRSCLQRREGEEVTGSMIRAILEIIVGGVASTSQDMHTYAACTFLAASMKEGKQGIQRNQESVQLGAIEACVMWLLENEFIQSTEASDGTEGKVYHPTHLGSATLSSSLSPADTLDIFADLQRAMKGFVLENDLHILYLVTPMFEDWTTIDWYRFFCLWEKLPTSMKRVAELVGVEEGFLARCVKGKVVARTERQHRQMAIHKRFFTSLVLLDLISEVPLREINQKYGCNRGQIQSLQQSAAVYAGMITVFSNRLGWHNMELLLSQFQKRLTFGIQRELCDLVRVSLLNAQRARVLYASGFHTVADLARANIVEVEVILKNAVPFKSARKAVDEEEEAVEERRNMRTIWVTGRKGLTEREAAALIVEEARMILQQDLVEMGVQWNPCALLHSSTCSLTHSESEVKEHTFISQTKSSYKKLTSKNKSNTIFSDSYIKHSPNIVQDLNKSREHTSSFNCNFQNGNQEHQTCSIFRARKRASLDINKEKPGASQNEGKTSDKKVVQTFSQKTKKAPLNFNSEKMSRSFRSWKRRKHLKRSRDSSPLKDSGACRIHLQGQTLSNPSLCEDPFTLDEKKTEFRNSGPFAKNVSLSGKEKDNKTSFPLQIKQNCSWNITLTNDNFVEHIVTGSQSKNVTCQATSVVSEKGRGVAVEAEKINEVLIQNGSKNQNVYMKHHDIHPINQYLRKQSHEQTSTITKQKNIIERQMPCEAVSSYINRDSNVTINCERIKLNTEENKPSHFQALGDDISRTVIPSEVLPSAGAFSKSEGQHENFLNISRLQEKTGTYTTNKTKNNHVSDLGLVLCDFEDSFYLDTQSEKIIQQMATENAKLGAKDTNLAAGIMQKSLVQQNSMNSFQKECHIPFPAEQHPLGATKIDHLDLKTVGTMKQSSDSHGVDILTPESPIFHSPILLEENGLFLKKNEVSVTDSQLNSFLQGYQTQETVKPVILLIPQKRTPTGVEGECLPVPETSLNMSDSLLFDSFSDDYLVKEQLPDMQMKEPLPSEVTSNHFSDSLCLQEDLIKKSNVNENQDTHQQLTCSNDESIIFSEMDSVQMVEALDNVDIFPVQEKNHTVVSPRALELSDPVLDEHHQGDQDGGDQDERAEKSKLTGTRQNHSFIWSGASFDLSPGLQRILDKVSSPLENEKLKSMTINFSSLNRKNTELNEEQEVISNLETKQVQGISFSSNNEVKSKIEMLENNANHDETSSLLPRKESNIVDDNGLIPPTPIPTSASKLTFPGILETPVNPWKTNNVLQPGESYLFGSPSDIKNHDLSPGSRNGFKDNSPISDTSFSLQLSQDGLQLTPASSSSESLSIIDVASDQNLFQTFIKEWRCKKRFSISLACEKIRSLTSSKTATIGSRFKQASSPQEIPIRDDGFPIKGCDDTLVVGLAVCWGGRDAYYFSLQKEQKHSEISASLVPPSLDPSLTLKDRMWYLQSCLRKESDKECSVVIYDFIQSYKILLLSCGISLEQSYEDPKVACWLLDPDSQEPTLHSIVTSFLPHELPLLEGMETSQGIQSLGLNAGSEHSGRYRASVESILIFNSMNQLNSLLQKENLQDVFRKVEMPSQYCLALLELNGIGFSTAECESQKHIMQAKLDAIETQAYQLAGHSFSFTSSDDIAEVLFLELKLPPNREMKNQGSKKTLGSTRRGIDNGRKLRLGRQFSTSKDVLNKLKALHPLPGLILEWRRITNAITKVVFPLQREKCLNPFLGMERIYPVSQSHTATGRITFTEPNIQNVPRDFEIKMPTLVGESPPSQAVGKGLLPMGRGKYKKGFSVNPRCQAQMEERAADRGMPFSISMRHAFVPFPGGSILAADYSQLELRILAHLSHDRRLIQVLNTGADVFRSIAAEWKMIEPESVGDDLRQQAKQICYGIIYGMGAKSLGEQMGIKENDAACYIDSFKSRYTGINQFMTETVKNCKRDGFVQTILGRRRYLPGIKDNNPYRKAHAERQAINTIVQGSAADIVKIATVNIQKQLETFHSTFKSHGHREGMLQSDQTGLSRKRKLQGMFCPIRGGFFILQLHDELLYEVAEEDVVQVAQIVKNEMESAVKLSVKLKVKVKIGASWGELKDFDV
Observed: enzyme activity
Mode: inhibitor
Concentration: 77 µM
Relative to: untreated
With `Cc1cc(C#N)cc(C)c1Oc1nc(Nc2ccc(C#N)cc2)nc(N)c1Br` the remaining activity was 79%.
`Cc1ncc([N+](=O)[O-])n1CC(C)O` (centres unmarked) gave a remaining activity of 102%.
`CNC(=C[N+](=O)[O-])NCCSCc1csc(CN(C)C)n1` has a remaining activity of 96.1% and 100%.
The remaining activity of `CC(C)c1nn(-c2c(Cl)cccc2Cl)c2nc(Cc3ccc(OCCO)cc3)[nH]c(=O)c12` is reported as 112%.
The remaining activity of `COc1cc(O)c2c(c1)C(=O)c1cc(C)cc(O)c1C2=O` is reported as 103%.
For `CN1C(=O)CC(c2ccccc2)C1=O` (centres unmarked), the remaining activity was 98.5%.
For `O=C(O[C@H]1C[N+]2(CCCOc3ccccc3)CCC1CC2)C(O)(c1cccs1)c1cccs1`, the remaining activity was 99.4%.
`CCCCCCC[N+](CC)(CC)CCCCc1ccc(Cl)cc1` gave a remaining activity of 95.7%.
The remaining activity of `CCNC(=O)CCC/C=C\C[C@@H]1[C@@H](/C=C/[C@@H](O)CCc2ccccc2)[C@H](O)C[C@@H]1O` is reported as 95.5%.
For `C[C@H](Cc1cc2c(c(C(N)=O)c1)N(CCCO)CC2)NCCOc1ccccc1OCC(F)(F)F`, the remaining activity was 92.4%.
For `CC(C)[C@H](NC(=O)OCc1ccccc1)C(=O)N[C@H](C=O)Cc1ccccc1`, the remaining activity was 93.9%.
The remaining activity of `CC1CCc2cc(F)cc3c(=O)c(C(=O)O)cn1c23` (centres unmarked) is reported as 103% and 102%.
With `CCCCCCCCCCCCCCCC[N+](C)(C)C` the remaining activity was 91.7%.
`N[C@@H]1C=CC=C(C(=O)O)C1` has a remaining activity of 99.3%.
`COc1cc2ncc(-c3ccccc3)nc2cc1OC` has a remaining activity of 99.7%.

Series 3
SMILES: Nc1cnc(N2CCc3cc(S(=O)(=O)Nc4c(F)cc(Cl)cc4F)cc(N4CCCC4=O)c32)nc1
Method: competition with immobilised ligand
Concentration: 1 µM
The remaining binding was 93% (Phosphatidylinositol 4-kinase beta (PI4KB, Homo sapiens, UniProt Q9UBF8); cell-free assay).
For Cyclin-dependent kinase 4 (CDK4, Homo sapiens, UniProt P11802); cell-free assay: remaining binding read 97%.
It gave 90% for remaining binding (Serine/threonine-protein kinase PAK 5 (PAK5, Homo sapiens, UniProt Q9P286); cell-free assay).
For Activin receptor type-2B (ACVR2B, Homo sapiens, UniProt Q13705); cell-free assay: remaining binding read 80%.
Leucine-rich repeat serine/threonine-protein kinase 2 (LRRK2, Homo sapiens, UniProt Q5S007, G2019S); cell-free assay — remaining binding: 81%.
The remaining binding was 67% (Calcium/calmodulin-dependent protein kinase type 1B (PNCK, Homo sapiens, UniProt Q6P2M8); cell-free assay).
For Serine/threonine-protein kinase B-raf (BRAF, Homo sapiens, UniProt P15056, V600E); cell-free assay: remaining binding read 100%.
It gave 100% for remaining binding (ALK tyrosine kinase receptor (ALK, Homo sapiens, UniProt Q9UM73); cell-free assay).
The remaining binding was 100% (Phosphatidylinositol 4,5-bisphosphate 3-kinase catalytic subunit alpha isoform (PIK3CA, Homo sapiens, UniProt P42336, E545K); cell-free assay).
It gave 100% for remaining binding (Mitogen-activated protein kinase 6 (MAPK6, Homo sapiens, UniProt Q16659); cell-free assay).
Mitotic checkpoint serine/threonine-protein kinase BUB1 (BUB1, Homo sapiens, UniProt O43683); cell-free assay — remaining binding: 100%.
It gave 89% for remaining binding (Receptor-type tyrosine-protein kinase FLT3 (FLT3, Homo sapiens, UniProt P36888, N841I); cell-free assay).
It gave 100% for remaining binding (Serine/threonine-protein kinase 35 (STK35, Homo sapiens, UniProt Q8TDR2); cell-free assay).
It gave 100% for remaining binding (Serine/threonine-protein kinase LATS1 (LATS1, Homo sapiens, UniProt O95835); cell-free assay).
It gave 97% for remaining binding (Casein kinase I isoform gamma-1 (CSNK1G1, Homo sapiens, UniProt Q9HCP0); cell-free assay).
For Tyrosine-protein kinase Mer (MERTK, Homo sapiens, UniProt Q12866); cell-free assay: remaining binding read 100%.
For Serine/threonine-protein kinase 38-like (STK38L, Homo sapiens, UniProt Q9Y2H1); binding: remaining binding read 42%.
For Insulin-like growth factor 1 receptor (IGF1R, Homo sapiens, UniProt P08069); cell-free assay: remaining binding read 90%.
The remaining binding was 100% (Tyrosine-protein kinase Fes/Fps (FES, Homo sapiens, UniProt P07332); cell-free assay).
For Cyclin-dependent kinase 5 (CDK5, Homo sapiens, UniProt Q00535); cell-free assay: remaining binding read 100%.
For SRSF protein kinase 3 (SRPK3, Homo sapiens, UniProt Q9UPE1); cell-free assay: remaining binding read 100%.
It gave 86% for remaining binding (Vascular endothelial growth factor receptor 3 (FLT4, Homo sapiens, UniProt P35916); cell-free assay).
Epidermal growth factor receptor (EGFR, Homo sapiens, UniProt P00533, G719C); cell-free assay — remaining binding: 100%.
For Membrane-associated tyrosine- and threonine-specific cdc2-inhibitory kinase (PKMYT1, Homo sapiens, UniProt Q99640); cell-free assay: remaining binding read 99%.
For Mitogen-activated protein kinase 4 (MAPK4, Homo sapiens, UniProt P31152); cell-free assay: remaining binding read 100%.

Series 4
SMILES: Cc1nc(Nc2ncc(C(=O)Nc3c(C)cccc3Cl)s2)cc(N2CCN(CCO)CC2)n1
Mode: inhibitor
For Muscle, skeletal receptor tyrosine-protein kinase (MUSK, Homo sapiens, UniProt O15146); 10 µM: inhibition read < 50%.
It gave < 50% for inhibition (Serine/threonine-protein kinase RIO2 (RIOK2, Homo sapiens, UniProt Q9BVS4); 10 µM).
It gave < 50% for inhibition (RAC-alpha serine/threonine-protein kinase (AKT1, Homo sapiens, UniProt P31749); 1 µM).
For 5'-AMP-activated protein kinase catalytic subunit alpha-1 (PRKAA1, Homo sapiens, UniProt Q13131); 1 µM: inhibition read < 50%.
The inhibition was < 50% (Serine/threonine-protein kinase DCLK1 (DCLK1, Homo sapiens, UniProt O15075); 10 µM).
For Tyrosine-protein kinase Fyn (FYN, Homo sapiens, UniProt P06241); 10 µM: inhibition read 100%.
It gave < 50% for inhibition (Ribosomal protein S6 kinase alpha-2, kinase domain 1 (RPS6KA2, Homo sapiens, UniProt Q15349); 10 µM).
Proto-oncogene tyrosine-protein kinase receptor Ret (RET, Homo sapiens, UniProt P07949); 1 µM — inhibition: < 50%.
It gave < 50% for inhibition (Mitogen-activated protein kinase kinase kinase 11 (MAP3K11, Homo sapiens, UniProt Q16584); 10 µM).

A few entries again (series 2):
`CCCCCCC[N+](CC)(CC)CCCCc1ccc(Cl)cc1` gave a remaining activity of 95.7%.
For `C[C@H](Cc1cc2c(c(C(N)=O)c1)N(CCCO)CC2)NCCOc1ccccc1OCC(F)(F)F`, the remaining activity was 92.4%.
The remaining activity of `CC1CCc2cc(F)cc3c(=O)c(C(=O)O)cn1c23` (centres unmarked) is reported as 103% and 102%.
For `CC(C)[C@H](NC(=O)OCc1ccccc1)C(=O)N[C@H](C=O)Cc1ccccc1`, the remaining activity was 93.9%.
For `CN1C(=O)CC(c2ccccc2)C1=O` (centres unmarked), the remaining activity was 98.5%.
With `CCCCCCCCCCCCCCCC[N+](C)(C)C` the remaining activity was 91.7%.
With `Cc1cc(C#N)cc(C)c1Oc1nc(Nc2ccc(C#N)cc2)nc(N)c1Br` the remaining activity was 79%.
`N[C@@H]1C=CC=C(C(=O)O)C1` has a remaining activity of 99.3%.
For `O=C(O[C@H]1C[N+]2(CCCOc3ccccc3)CCC1CC2)C(O)(c1cccs1)c1cccs1`, the remaining activity was 99.4%.
